Measurements pooled from the literature.
± marks the error that the study gave.
Sequence of UniProt Q9Y6L6 (whole entry, looked up): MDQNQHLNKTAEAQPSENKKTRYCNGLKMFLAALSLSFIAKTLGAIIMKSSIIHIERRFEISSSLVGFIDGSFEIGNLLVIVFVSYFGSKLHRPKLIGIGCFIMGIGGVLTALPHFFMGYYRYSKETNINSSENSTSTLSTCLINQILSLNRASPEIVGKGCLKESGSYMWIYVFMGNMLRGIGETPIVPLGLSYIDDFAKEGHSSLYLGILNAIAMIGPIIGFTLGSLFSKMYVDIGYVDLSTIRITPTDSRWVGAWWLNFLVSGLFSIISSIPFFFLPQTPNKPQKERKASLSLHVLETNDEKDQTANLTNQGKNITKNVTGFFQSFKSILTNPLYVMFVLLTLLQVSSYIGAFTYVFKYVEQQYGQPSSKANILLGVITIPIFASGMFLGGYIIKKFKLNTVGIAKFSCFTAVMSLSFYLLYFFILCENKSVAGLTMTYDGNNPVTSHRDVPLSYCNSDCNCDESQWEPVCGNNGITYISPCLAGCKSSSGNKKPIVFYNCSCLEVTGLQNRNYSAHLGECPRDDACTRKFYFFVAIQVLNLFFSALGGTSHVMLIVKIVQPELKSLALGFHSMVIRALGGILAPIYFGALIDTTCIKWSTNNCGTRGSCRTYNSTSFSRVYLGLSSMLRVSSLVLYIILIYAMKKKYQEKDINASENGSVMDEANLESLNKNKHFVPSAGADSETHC
Sequence of UniProt P45983 (whole entry, looked up): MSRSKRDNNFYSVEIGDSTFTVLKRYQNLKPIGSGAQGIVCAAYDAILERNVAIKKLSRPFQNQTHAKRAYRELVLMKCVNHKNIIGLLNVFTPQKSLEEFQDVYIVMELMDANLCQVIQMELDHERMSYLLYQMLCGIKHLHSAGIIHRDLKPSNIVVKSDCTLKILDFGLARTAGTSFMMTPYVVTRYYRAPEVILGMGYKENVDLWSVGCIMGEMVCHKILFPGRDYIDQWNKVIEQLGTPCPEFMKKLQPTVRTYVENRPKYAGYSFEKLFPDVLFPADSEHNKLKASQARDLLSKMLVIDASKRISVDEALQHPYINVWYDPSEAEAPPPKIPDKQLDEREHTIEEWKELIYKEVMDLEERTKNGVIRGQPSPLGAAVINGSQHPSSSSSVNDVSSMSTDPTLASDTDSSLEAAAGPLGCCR

SMILES	target or system	test	system	conditions	how to read	endpoint	result
Cc1cc(Nc2ncc(Cl)c(Nc3ccccc3S(=O)(=O)C(C)C)n2)c(OC(C)C)cc1C1CCNCC1	HEK293T	–	–	48 h	–	CC50	21.1 µM
CC[C@H](C)[C@H](NC(=O)[C@H](CCCCN)NC(=O)CNC(=O)[C@H](CC(C)C)NC(=O)[C@H](Cc1ccccc1)NC(=O)[C@H](CCCCN)NC(=O)[C@H](CO)NC(=O)[C@H](Cc1ccccc1)NC(=O)[C@H](Cc1c[nH]c2ccccc12)NC(=O)[C@H](CCC(N)=O)NC(=O)[C@@H](NC(=O)[C@H](Cc1ccccc1)NC(=O)CCCCCNC(=O)CN1CCN(CC(=O)O)CCN(CC(=O)O)CCN(CC(=O)O)CC1)C(C)C)C(=O)N[C@@H](CCC(=O)O)C(=O)N1CCC[C@H]1C(=O)N[C@@H](CC(=O)O)C(=O)N[C@H](C(=O)N[C@@H](CO)C(=O)N[C@@H](CCC(N)=O)C(=O)N[C@H](C(=O)N[C@@H](CCC(N)=O)C(=O)N[C@@H](CC(=O)O)C(=O)N1CCC[C@H]1C(=O)N[C@@H](CC(N)=O)C(=O)N[C@@H](CC(=O)O)C(=O)N[C@@H](CCC(N)=O)C(=O)N[C@@H](Cc1ccc(O)cc1)C(=O)N[C@@H](CCC(=O)O)C(=O)N1CCC[C@H]1C(=O)N[C@@H](Cc1ccccc1)C(=O)O)C(C)C)C(C)C [copper-64 labelled]	–	–	C57BL/6 male mouse, tumour-naive, bone	2 h	–	tissue uptake	1.21 ± 0.01 %ID/g
CC(C)CC(NC(=O)OCc1ccccc1)C(=O)NC(CC1CCNC1=O)C(=O)C(=O)NC1CC1 (stereo not shown)	RD	–	–	5 (unit not given)	–	CC50	> 250 µM
O=c1c2ccccc2[se]n1-c1ccncc1	HPAEpiC	cell growth or viability, MTT	–	24 h	–	CC50	> 100 µM
Cc1cc(-c2ccc3ccccc3c2)nnc1NCCN1CCN(C)CC1	Solute carrier organic anion transporter family member 1B1 (SLCO1B1, Homo sapiens, UniProt Q9Y6L6)	transport	–	concentration not given	–	inhibition	negative
O=C(CCN(CCC(=O)N[C@@H](Cc1c[nH]c2ccccc12)C(=O)O)C(=O)CCN(CCC(=O)N(CCC(=O)N[C@@H](Cc1c[nH]c2ccccc12)C(=O)O)CCC(=O)N[C@@H](Cc1c[nH]c2ccccc12)C(=O)O)C(=O)CCC(CCC(=O)N(CCC(=O)N(CCC(=O)N[C@@H](Cc1c[nH]c2ccccc12)C(=O)O)CCC(=O)N[C@@H](Cc1c[nH]c2ccccc12)C(=O)O)CCC(=O)N(CCC(=O)N[C@@H](Cc1c[nH]c2ccccc12)C(=O)O)CCC(=O)N[C@@H](Cc1c[nH]c2ccccc12)C(=O)O)(CCC(=O)N(CCC(=O)N(CCC(=O)N[C@@H](Cc1c[nH]c2ccccc12)C(=O)O)CCC(=O)N[C@@H](Cc1c[nH]c2ccccc12)C(=O)O)CCC(=O)N(CCC(=O)N[C@@H](Cc1c[nH]c2ccccc12)C(=O)O)CCC(=O)N[C@@H](Cc1c[nH]c2ccccc12)C(=O)O)[N+](=O)[O-])N[C@@H](Cc1c[nH]c2ccccc12)C(=O)O	HEL or HeLa cells	cell viability	–	–	–	CC50	> 100 µM
C[C@H]1[C@H](OC(=O)CCC(=O)OCc2cn(-c3cc4ccc(O)cc4oc3=O)nn2)O[C@@H]2O[C@@]3(C)CC[C@H]4[C@H](C)CC[C@@H]1[C@@]24OO3	J774	cell growth or viability, ATP luminescence	–	72 h	–	CC50	37.6 µM
Cc1ccc(N)cc1C(=O)N[C@H](C)c1cccc2ccccc12	HEK293T	–	–	48 h	–	CC50	275 µM
C[C@H]1[C@@H](OCc2cn(-c3cc4ccc(O)cc4oc3=O)nn2)O[C@@H]2O[C@@]3(C)CC[C@H]4[C@H](C)CC[C@@H]1[C@@]24OO3	J774	cell growth or viability, ATP luminescence	–	72 h	–	CC50	9.56 µM
O=c1c2ccccc2[se]n1-c1ccccc1	HEK293T	–	–	48 h	–	CC50	> 100 µM
O=C1NC2(CC2)COc2ncc(F)cc2[C@H]2COCCN2c2ccn3ncc1c3n2	–	–	Sprague-Dawley rat, female, plasma	oral, 2.5 mg/kg/day, end of recovery, 4-week repeated-dose toxicity	–	prothrombin time	8.1 ± 0.2 s
CS(C)(=O)=Nc1ccc(-c2ccc(-c3nc4cc(O[C@@H]5CO[C@H]6[C@@H]5OC[C@H]6O)[nH]c4cc3F)cc2)cc1	Mitogen-activated protein kinase 8 (MAPK8, Homo sapiens, UniProt P45983)	enzyme activity, inhibitor	–	10 µM	–	inhibition	10%
O=c1c2ccccc2[se]n1-c1ccc(F)cc1	HPAEpiC	cell growth or viability, MTT	–	24 h	–	CC50	> 100 µM
CC(C)CC(=O)OC1C=CC=CC(=O)OC2C(C)CC3C2(O)C(O)C2(CO)OC2C2C4OC5(c6ccccc6)OC(C(C)C23O5)C4(O)C(C)(O)CC2CCC1C2C (stereo not shown)	HeLa-ACE2	cell growth or viability, ATP luminescence	–	72 h	–	CC50	12.7 µM
Cc1nc2cccc(OCC(C)(C)C(=O)NC(C)C)c2c(N)c1C(=O)[O-].[Na+]	Escherichia coli	reverse mutation, preincubation	WP2 uvrA	5.0 mg/plate, with rat liver S9	–	revertant colonies	33 ± 2 colonies/plate
O=C(CCN(CCC(=O)N[C@@H](Cc1c[nH]c2ccccc12)C(=O)O)C(=O)CCN(CCC(=O)N(CCC(=O)N[C@@H](Cc1c[nH]c2ccccc12)C(=O)O)CCC(=O)N[C@@H](Cc1c[nH]c2ccccc12)C(=O)O)C(=O)[C@H]1C[C@@H](C(=O)N(CCC(=O)N(CCC(=O)N[C@@H](Cc2c[nH]c3ccccc23)C(=O)O)CCC(=O)N[C@@H](Cc2c[nH]c3ccccc23)C(=O)O)CCC(=O)N(CCC(=O)N[C@@H](Cc2c[nH]c3ccccc23)C(=O)O)CCC(=O)N[C@@H](Cc2c[nH]c3ccccc23)C(=O)O)C[C@@H](C(=O)N(CCC(=O)N(CCC(=O)N[C@@H](Cc2c[nH]c3ccccc23)C(=O)O)CCC(=O)N[C@@H](Cc2c[nH]c3ccccc23)C(=O)O)CCC(=O)N(CCC(=O)N[C@@H](Cc2c[nH]c3ccccc23)C(=O)O)CCC(=O)N[C@@H](Cc2c[nH]c3ccccc23)C(=O)O)C1)N[C@@H](Cc1c[nH]c2ccccc12)C(=O)O	HEL or HeLa cells	cell viability	–	–	–	CC50	> 100 µM
O=c1c2ccccc2[se]n1-c1ccncc1F	HPAEpiC	cell growth or viability, MTT	–	24 h	–	CC50	> 100 µM
COc1ccccc1-c1n[nH]c2nc(NC3CCN(C(=O)Cc4ccc(F)cc4F)CC3)ncc12	–	bead binding, competition bead pull-down, item: LINJ.36.0190	Leishmania donovani axenic amastigote extract	10 µM	baseline: vehicle	relative abundance	1.08
CCCCCCCCC=CCCCCCCCCNC(=O)C(N)Cc1ccc(OP(=O)(O)COC(CO)Cn2ccc(N)nc2=O)cc1 (stereo not shown)	ARPE-19	cell growth or viability, neutral red	–	–	–	CC50	3.4 µM

Excerpt of the above:
SMILES	target or system	test	system	conditions	how to read	endpoint	result
CCCCCCCCC=CCCCCCCCCNC(=O)C(N)Cc1ccc(OP(=O)(O)COC(CO)Cn2ccc(N)nc2=O)cc1 (stereo not shown)	ARPE-19	cell growth or viability, neutral red	–	–	–	CC50	3.4 µM
Cc1cc(-c2ccc3ccccc3c2)nnc1NCCN1CCN(C)CC1	Solute carrier organic anion transporter family member 1B1 (SLCO1B1, Homo sapiens, UniProt Q9Y6L6)	transport	–	concentration not given	–	inhibition	negative
O=c1c2ccccc2[se]n1-c1ccncc1F	HPAEpiC	cell growth or viability, MTT	–	24 h	–	CC50	> 100 µM
